Experimental data of several laboratories.
Protocols differ between the studies behind these lines. ± marks the error that the study gave.
OPRK1: Kappa-type opioid receptor (OPRK1, Homo sapiens, UniProt P41145)
PYR1: Abscisic acid receptor PYR1 (PYR1, Arabidopsis thaliana, UniProt O49686)
GABA-A receptor; alpha-5/beta-3/gamma-2: GABA-A receptor; alpha-5/beta-3/gamma-2 (Homo sapiens, UniProt P18507+P28472+P31644)

COC(=O)C1=C2Nc3ccccc3[C@@]23CCN2C[C@@](O)([C@@H](C)O)[C@@H]1C[C@H]23  EC50 (OPRK1; cAMP inhibition, agonist, HitHunter; CHO-K1; with: forskolin): > 10000 nM
O=C(Cc1cc(C2CC2)c(-n2cc(CNC(=O)c3csc(Br)c3)nn2)c(C2CC2)c1)NC1(C(=O)O)CCCCC1  EC50 (PYR1; phosphatase activity recovery, antagonist; with: HAB1, ABA 5000 nM): 98 ± 28 nM
O=C(Nc1ccn(Cc2ccc(O)cc2C(F)(F)F)n1)c1c(F)cccc1F  EC50 (Short transient receptor potential channel 3 (TRPC3, Homo sapiens, UniProt Q13507); ion channel activity, agonist; cells overexpressing TRPC3; human receptor): > 10000 nM
Cc1nn2c(N3CCN(CCO)CC3)cc(-c3ccccc3)nc2c1-c1ccccc1  EC50 (GTPase KRas, with SOS1 (KRAS, Homo sapiens, UniProt P01116); SOS-mediated nucleotide exchange): 600 ± 100 nM
O=C(O)C1=CCNCC1  EC50 (GABA-A receptor; alpha-5/beta-3/gamma-2; membrane potential, agonist, QP-DHM fluorescence; HEK293 expressing GABAA α5β3γ2): 6000 nM
O=C(Cc1cc(C2CC2)c(-n2cc(CNC(=O)c3cnc(Br)s3)nn2)c(C2CC2)c1)NC1(C(=O)O)CCCCC1  EC50 (PYR1; phosphatase activity recovery, antagonist; with: HAB1, ABA 5000 nM): 160 ± 28 nM
NC(=O)c1ccc[n+]([C@@H]2O[C@H](CO)[C@@H](O)[C@H]2O)c1  EC50 (NAD-dependent protein deacylase sirtuin-5, mitochondrial (SIRT5, Homo sapiens, UniProt Q9NXA8); probe labelling, activator; with: probe A 25 µM, NAD+ 500 µM): 210000 nM
CCCCC[C@H](O)/C=C/[C@H]1[C@H](O)CC(=O)[C@@H]1C/C=C\CCCC(=O)O  EC50 (Prostaglandin E2 receptor EP1 subtype (PTGER1, Homo sapiens, UniProt P34995, Q298A); IP1 accumulation, agonist; AD293; EP1 Q298A mutant): 1.91 nM
O=C1Nc2c(ccc(Cl)c2Cl)C1=NO  EC50 (KCNN4/CALM1 (Homo sapiens, UniProt O15554+P0DP23); ion current, activator, whole-cell patch clamp; HEK293; with: 3 µM free calcium): 8.6 nM
CCn1c(-c2nc3ccc(C(=O)N4CCCC(N)C4)cc3n2C)cc2ccccc21 (stereo not drawn)  EC50 (D(2) dopamine receptor (DRD2, Homo sapiens, UniProt P14416); agonist, GTPγS binding): > 100000 nM
CCCCCCCC/C=C\CCCCCCCC(=O)NCCc1ccc(O)c(O)c1  EC50 (Transient receptor potential cation channel subfamily V member 1 (Trpv1, Mus musculus, UniProt Q704Y3, S511T); ion current, agonist, whole-cell patch clamp; 24 °C, S511T, +80 mV): 270 ± 50 nM
O=C(Cc1cc(C2CC2)c(-n2cc(CNC(=O)c3cccc4c3OC(F)(F)O4)nn2)c(C2CC2)c1)NC1(C(=O)O)CCCCC1  EC50 (PYR1; phosphatase activity recovery, antagonist; with: HAB1, ABA 5000 nM): 174 ± 20 nM
O=S(=O)(O)C1CCNCC1  EC50 (GABA-A receptor; alpha-5/beta-3/gamma-2; membrane potential, agonist, QP-DHM fluorescence; HEK293 expressing GABAA α5β3γ2): 12000 nM
O=C(Cc1cc(C2CC2)c(-n2cc(CNC(=O)c3ccc4cccc(F)c4n3)nn2)c(C2CC2)c1)NC1(C(=O)O)CCCCC1  EC50 (PYR1; phosphatase activity recovery, antagonist; with: HAB1, ABA 5000 nM): 116 ± 22 nM
COC(=O)C1=C2Nc3ccc(Br)cc3[C@@]23CCN2C[C@@](O)([C@@H](C)O)[C@@H]1C[C@H]23  EC50 (OPRK1; cAMP inhibition, agonist, HitHunter; CHO-K1; with: forskolin): > 10000 nM
O=C(Cc1cc(C2CC2)c(-n2cc(CNC(=O)c3ccc4ccccc4n3)nn2)c(C2CC2)c1)NC1(C(=O)O)CCCCC1  EC50 (PYR1; phosphatase activity recovery, antagonist; with: HAB1, ABA 5000 nM): 126 ± 21 nM
Cc1nn(-c2nc3c(F)cc(F)cc3s2)c(O)c1C(c1cccc(C(F)(F)F)c1)c1c(C)nn(-c2nc3c(F)cc(F)cc3s2)c1O  EC50 (Cyclic GMP-AMP synthase, catalytic domain; with DNA (CGAS, Homo sapiens, UniProt Q8N884); cGAS phase separation, inhibitor): 4780 nM
O=C(Cc1cc(C2CC2)c(-n2cc(CNC(=O)c3cccc(Br)n3)nn2)c(C2CC2)c1)NC1(C(=O)O)CCCCC1  EC50 (PYR1; phosphatase activity recovery, antagonist; with: HAB1, ABA 5000 nM): 230 ± 39 nM
Cn1cc(-c2cnc(N)n3nc(-c4ccco4)nc23)ccc1=O  EC50 (Adenosine receptor A2a (ADORA2A, Homo sapiens, UniProt P29274)): > 100000 nM
CCn1c(-c2nc3cc(C(=O)N4CCC[C@@H](N)C4)cc(OC)c3n2C)cc2cccnc21  EC50 (OPRK1; G protein activation, agonist, GTPγS binding): > 100000 nM
Cc1cccc(C(=O)NCc2cn(-c3c(C4CC4)cc(CC(=O)NC4(C(=O)O)CCCCC4)cc3C3CC3)nn2)n1  EC50 (PYR1; phosphatase activity recovery, antagonist; with: HAB1, ABA 5000 nM): 333 ± 79 nM

A few entries again:
CCCCC[C@H](O)/C=C/[C@H]1[C@H](O)CC(=O)[C@@H]1C/C=C\CCCC(=O)O  EC50 (Prostaglandin E2 receptor EP1 subtype (PTGER1, Homo sapiens, UniProt P34995, Q298A); IP1 accumulation, agonist; AD293; EP1 Q298A mutant): 1.91 nM
O=C1Nc2c(ccc(Cl)c2Cl)C1=NO  EC50 (KCNN4/CALM1 (Homo sapiens, UniProt O15554+P0DP23); ion current, activator, whole-cell patch clamp; HEK293; with: 3 µM free calcium): 8.6 nM
CCn1c(-c2nc3ccc(C(=O)N4CCCC(N)C4)cc3n2C)cc2ccccc21 (stereo not drawn)  EC50 (D(2) dopamine receptor (DRD2, Homo sapiens, UniProt P14416); agonist, GTPγS binding): > 100000 nM
